Measured values gathered from unrelated publications.
Each line is one published result; not all experiments were run side by side.
CTSL: Procathepsin L (CTSL, Homo sapiens, UniProt P07711)
Sequence of UniProt P07711 (whole entry, looked up): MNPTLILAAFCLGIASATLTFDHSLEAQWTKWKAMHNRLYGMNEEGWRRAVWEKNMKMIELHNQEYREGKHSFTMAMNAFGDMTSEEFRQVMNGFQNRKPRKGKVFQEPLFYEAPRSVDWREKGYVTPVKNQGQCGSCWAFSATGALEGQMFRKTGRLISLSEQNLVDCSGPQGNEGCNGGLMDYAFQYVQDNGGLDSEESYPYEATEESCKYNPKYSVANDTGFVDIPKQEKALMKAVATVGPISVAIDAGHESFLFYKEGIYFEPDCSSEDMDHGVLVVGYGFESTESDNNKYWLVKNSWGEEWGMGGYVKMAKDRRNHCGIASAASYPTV
DRD3: D(3) dopamine receptor (DRD3, Homo sapiens, UniProt P35462)
Sequence of UniProt P35462 (whole entry, looked up): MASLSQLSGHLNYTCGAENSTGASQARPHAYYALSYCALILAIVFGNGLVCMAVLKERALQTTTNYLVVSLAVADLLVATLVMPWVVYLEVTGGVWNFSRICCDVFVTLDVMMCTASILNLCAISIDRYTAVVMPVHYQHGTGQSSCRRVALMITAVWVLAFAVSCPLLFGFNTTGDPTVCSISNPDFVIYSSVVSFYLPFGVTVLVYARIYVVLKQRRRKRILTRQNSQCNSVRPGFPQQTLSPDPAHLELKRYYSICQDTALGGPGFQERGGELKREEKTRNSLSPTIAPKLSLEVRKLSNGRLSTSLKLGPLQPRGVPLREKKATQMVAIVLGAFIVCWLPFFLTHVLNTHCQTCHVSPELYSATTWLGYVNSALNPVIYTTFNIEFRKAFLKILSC
Sequence of UniProt Q00535 (whole entry, looked up): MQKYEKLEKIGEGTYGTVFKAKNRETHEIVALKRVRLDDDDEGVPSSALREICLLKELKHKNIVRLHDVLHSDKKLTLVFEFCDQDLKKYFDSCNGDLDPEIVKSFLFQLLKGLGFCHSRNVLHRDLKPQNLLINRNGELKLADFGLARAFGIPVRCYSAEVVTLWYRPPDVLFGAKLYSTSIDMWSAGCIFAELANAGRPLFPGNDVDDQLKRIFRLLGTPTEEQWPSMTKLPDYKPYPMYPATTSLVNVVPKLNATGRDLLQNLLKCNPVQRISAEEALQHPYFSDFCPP
Sequence of UniProt P61075 (whole entry, looked up): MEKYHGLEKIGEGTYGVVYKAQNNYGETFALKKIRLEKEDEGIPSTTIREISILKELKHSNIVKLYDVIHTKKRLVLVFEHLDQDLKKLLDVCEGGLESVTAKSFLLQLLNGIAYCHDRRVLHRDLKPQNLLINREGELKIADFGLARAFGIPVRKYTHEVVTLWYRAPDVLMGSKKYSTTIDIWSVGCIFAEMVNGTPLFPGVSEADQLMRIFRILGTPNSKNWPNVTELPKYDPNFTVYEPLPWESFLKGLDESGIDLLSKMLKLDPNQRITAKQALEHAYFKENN
Sequence of UniProt Q969F8 (whole entry, unmodified, looked up): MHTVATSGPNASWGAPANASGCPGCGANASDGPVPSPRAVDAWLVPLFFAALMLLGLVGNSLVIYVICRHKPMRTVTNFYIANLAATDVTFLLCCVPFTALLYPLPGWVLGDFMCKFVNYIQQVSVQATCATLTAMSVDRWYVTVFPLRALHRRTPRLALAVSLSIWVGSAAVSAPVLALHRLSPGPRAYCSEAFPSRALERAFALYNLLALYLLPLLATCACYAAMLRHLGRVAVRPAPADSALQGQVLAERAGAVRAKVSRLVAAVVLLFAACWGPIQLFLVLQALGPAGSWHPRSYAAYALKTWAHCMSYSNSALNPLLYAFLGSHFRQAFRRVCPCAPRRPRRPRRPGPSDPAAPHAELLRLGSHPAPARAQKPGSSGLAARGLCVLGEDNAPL
Sequence of UniProt Q9H8M2 (whole entry, unmodified, looked up): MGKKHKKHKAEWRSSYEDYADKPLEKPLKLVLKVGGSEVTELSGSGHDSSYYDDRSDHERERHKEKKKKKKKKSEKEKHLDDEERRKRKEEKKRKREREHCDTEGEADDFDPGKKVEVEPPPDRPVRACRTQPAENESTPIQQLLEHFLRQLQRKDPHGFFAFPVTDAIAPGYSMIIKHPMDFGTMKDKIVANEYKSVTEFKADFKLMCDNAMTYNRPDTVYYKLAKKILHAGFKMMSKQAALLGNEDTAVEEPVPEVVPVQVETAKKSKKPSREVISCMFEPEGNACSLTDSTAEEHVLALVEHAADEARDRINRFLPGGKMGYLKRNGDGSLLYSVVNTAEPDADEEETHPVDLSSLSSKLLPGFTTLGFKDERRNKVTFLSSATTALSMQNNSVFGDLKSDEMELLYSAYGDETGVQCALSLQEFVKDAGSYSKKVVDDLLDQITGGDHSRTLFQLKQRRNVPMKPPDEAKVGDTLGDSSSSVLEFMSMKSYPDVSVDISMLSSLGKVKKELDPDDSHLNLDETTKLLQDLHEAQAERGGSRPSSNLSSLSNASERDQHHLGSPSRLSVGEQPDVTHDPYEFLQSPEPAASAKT
Sequence of UniProt Q08881 (whole entry, looked up): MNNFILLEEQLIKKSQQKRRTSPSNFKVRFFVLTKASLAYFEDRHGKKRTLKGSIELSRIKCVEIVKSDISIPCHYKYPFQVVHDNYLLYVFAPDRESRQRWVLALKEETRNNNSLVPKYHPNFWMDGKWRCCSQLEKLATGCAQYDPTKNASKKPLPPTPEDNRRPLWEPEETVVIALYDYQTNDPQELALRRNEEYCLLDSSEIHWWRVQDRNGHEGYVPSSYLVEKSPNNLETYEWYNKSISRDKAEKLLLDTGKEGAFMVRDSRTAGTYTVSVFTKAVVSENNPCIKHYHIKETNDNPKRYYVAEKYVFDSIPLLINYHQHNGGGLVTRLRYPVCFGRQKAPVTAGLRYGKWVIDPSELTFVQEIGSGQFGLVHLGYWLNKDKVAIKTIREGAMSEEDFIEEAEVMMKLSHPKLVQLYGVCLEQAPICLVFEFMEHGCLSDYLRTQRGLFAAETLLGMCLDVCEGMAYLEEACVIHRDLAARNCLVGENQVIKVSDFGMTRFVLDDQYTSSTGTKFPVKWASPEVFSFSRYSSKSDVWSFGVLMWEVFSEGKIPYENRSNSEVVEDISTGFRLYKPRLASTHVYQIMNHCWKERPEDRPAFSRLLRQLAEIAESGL
Sequence of UniProt O75582 (whole entry, looked up): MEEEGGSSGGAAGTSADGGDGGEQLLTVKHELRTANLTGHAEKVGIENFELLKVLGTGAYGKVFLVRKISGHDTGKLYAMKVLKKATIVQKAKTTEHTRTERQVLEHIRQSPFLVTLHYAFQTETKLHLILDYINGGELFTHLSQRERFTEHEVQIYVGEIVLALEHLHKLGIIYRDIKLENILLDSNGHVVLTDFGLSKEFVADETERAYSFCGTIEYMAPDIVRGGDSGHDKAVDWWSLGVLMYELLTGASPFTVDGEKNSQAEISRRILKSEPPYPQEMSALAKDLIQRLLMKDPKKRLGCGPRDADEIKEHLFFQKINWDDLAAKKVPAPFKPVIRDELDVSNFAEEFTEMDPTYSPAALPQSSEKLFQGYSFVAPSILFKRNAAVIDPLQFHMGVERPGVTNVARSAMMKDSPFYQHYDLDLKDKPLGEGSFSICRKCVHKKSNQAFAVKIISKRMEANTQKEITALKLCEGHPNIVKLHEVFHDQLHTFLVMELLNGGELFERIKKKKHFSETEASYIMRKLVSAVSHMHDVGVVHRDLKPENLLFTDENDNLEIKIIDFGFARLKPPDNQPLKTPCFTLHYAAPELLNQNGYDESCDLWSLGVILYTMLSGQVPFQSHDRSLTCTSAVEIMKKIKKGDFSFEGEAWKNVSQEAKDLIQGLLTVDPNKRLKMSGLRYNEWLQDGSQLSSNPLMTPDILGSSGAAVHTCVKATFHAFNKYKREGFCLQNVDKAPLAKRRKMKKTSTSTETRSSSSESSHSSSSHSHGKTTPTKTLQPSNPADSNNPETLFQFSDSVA
Sequence of UniProt Q9UBN7 (whole entry, looked up): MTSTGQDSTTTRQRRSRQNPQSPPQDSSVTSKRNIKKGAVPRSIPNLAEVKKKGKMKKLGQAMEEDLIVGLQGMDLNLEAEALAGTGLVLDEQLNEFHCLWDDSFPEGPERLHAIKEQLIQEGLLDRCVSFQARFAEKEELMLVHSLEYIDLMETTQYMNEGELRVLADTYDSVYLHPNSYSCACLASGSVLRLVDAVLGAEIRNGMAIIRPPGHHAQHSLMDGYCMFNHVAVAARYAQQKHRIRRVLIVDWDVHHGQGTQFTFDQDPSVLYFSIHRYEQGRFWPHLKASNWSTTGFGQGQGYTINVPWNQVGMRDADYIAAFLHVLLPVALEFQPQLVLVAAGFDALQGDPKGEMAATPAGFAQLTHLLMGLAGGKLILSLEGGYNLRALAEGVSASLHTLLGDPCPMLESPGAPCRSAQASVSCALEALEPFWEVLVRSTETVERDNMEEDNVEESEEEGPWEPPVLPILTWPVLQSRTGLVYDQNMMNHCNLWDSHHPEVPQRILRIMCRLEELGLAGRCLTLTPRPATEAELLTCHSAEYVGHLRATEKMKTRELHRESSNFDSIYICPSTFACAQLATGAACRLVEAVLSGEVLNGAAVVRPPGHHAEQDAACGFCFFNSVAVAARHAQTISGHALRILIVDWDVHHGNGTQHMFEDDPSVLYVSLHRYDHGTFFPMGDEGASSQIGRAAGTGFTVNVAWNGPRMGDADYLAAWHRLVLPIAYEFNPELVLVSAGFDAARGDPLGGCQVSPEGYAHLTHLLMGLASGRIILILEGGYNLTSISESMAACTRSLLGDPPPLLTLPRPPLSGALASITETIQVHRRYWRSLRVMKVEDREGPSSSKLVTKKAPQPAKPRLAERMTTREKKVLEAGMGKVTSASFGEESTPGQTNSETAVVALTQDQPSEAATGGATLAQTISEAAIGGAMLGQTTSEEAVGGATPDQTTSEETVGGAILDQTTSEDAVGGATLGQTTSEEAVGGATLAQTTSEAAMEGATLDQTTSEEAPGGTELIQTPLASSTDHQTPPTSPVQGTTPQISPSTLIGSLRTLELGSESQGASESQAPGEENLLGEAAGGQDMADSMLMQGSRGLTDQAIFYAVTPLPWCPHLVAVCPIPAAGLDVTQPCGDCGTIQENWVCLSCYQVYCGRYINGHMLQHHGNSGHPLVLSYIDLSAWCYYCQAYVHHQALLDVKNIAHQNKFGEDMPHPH

Nc1ncnc2occ(-c3ccc(NC(=O)Nc4cc(C(F)(F)F)ccc4F)cc3)c12  remaining signal (Mitotic checkpoint serine/threonine-protein kinase BUB1 (BUB1, Homo sapiens, UniProt O43683); cell-free assay, inhibitor; 20 µM): 78%
COc1ccc(-c2cc(=S)ss2)cc1  remaining activity (CTSL; enzyme activity, inhibitor; 100 µM): 103%
Cc1[nH]c(C)c(S(=O)(=O)Nc2ccc(I)c(Cl)c2)c1C(=O)N1CCC(F)(F)C1  Emax (DRD3; β-arrestin recruitment, agonist; 90 min): 103%
CNS(=O)(=O)c1ccc(Nc2ncc(C(F)(F)F)c(N3CCC[C@](C)(O)C3)n2)c(C)c1  remaining binding (Cyclin-dependent kinase 2 (CDK2, Homo sapiens, UniProt P24941); binding, competition with immobilised ligand; 1 µM): 5.3%
Oc1ccc(/C=C/c2cc(O)cc(O)c2)cc1  remaining activity (CTSL; enzyme activity, inhibitor; 100 µM): 99.1%
Cc1cc([C@@H](C)Nc2ccccc2C(=O)O)c2nc(N3CCC(F)(F)CC3)c(C#N)c(=O)n2c1  remaining binding (Phosphatidylinositol 4-phosphate 3-kinase C2 domain-containing subunit beta (PIK3C2B, Homo sapiens, UniProt O00750); binding, competition with immobilised ligand; 1 µM): 100%
CC[C@H](C)[C@H](NC(=O)[C@H](CCC(N)=O)NC(=O)[C@H](CCCNC(=N)N)NC(=O)[C@H](CO)NC(=O)[C@H](Cc1c[nH]cn1)NC(=O)[C@@H]1CCCN1C(=O)[C@H](C)NC(=O)[C@H](CO)NC(=O)[C@H](CC(C)C)NC(=O)CNC(=O)[C@@H]1CCCN1C(=O)[C@H](CCC(N)=O)NC(=O)[C@H](CCC(N)=O)NC(=O)[C@H](CCCNC(=N)N)NC(=O)[C@H](CO)NC(=O)CNC(=O)[C@H](CO)NC(=O)[C@H](CO)NC(=O)[C@H](CCC(=O)O)NC(=O)[C@@H]1CCCN1C(=O)[C@@H]1CCCN1C(=O)[C@@H]1CCCN1C(=O)[C@H](CO)NC(=O)[C@H](CC(C)C)NC(=O)[C@H](CO)NC(=O)[C@@H](NC(=O)CN)[C@@H](C)O)C(=O)N1CCC[C@H]1C(=O)N[C@@H](C)C(=O)N1CCC[C@H]1C(=O)N[C@@H](CCC(N)=O)C(=O)NCC(=O)N[C@@H](C)C(=O)N[C@H](C(=O)N[C@@H](CC(C)C)C(=O)N[C@H](C(=O)N[C@@H](CCC(N)=O)C(=O)N[C@@H](CCCNC(=N)N)C(=O)N[C@@H](CCC(=O)O)C(=O)N[C@@H](CCCCN)C(=O)N[C@@H](CC(=O)O)C(=O)N[C@@H](CC(C)C)C(=O)N1CCC[C@H]1C(=O)N[C@@H](CC(N)=O)C(=O)N[C@@H](Cc1ccc(O)cc1)C(=O)N[C@@H](CC(N)=O)C(=O)N[C@@H](Cc1c[nH]c2ccccc12)C(=O)N[C@@H](CC(N)=O)C(=O)N[C@@H](CO)C(=O)N[C@@H](Cc1ccccc1)C(=O)NCC(=O)N[C@@H](CC(C)C)C(=O)N[C@@H](CCCNC(=N)N)C(=O)N[C@@H](Cc1ccccc1)C(N)=O)C(C)C)C(C)C  Emax (KiSS-1 receptor (KISS1R, Homo sapiens, UniProt Q969F8, H181A); inositol phosphate, agonist; HEK293): 71.8%
C1=C/COCc2cc(ccc2OCCN2CCCC2)Nc2nccc(n2)-c2cccc(c2)COC/1  remaining binding (Epidermal growth factor receptor (EGFR, Homo sapiens, UniProt P00533, L858R/T790M); binding; 0.1 µM): 15%
Cc1ccc(N(O)N=Nc2ccc(S(=O)(=O)Nc3cc(C)on3)cc2)cc1  inhibition (ABTS scavenging; 180 µg/mL): 40.2%
O=C(NO)c1cncc(OS(=O)(=O)Oc2ccc(C(F)(F)F)cc2)c1  Ki (Protein deacetylase HDAC6 (HDAC6, Homo sapiens, UniProt Q9UBN7); enzyme activity, inhibitor, fluorescence): 66 nM
COc1cc(-c2cncc3c2CN(C)Cc2cc(N4CCNCC4)ccc2-3)cc(OC)c1OC  remaining activity (Serine/threonine-protein kinase Sgk2 (SGK2, Homo sapiens, UniProt Q9HBY8); enzyme activity, inhibitor; 1 µM): 128%
CC1OC(OC2C(CO)OC(OCC3OC(OC(=O)C45CCC(C)(C)CC4C4=CCC6C7(C)CCC(OC8OCC(O)C(O)C8O)C(C)(CO)C7CCC6(C)C4(C)CC5)C(O)C(O)C3O)C(O)C2O)C(O)C(O)C1O (centres unmarked)  remaining activity (CTSL; enzyme activity, inhibitor; 100 µM): 304%
CNc1ncc2c(/C=C/C(=O)N3CCC(OC)CC3)nn(Cc3cccc(C(F)(F)F)c3)c2n1  remaining activity (Serine/threonine-protein kinase WNK3 (WNK3, Homo sapiens, UniProt Q9BYP7); enzyme activity, inhibitor, radiometric; 1 µM): 114%
CCCCC(=O)Nc1ccc(-c2ccc3ncn(CCC)c(=O)c3c2)cn1  remaining binding (Tyrosine-protein kinase ITK/TSK (ITK, Homo sapiens, UniProt Q08881); binding, competition with immobilised ligand; 0.5 µM): 100%
CCCN(O)N=Nc1ccc(S(=O)(=O)Nc2nccs2)cc1  inhibition (ABTS scavenging; 180 µg/mL): 56.5%
O=C(C=Cc1ccccc1O)c1ccccc1O  remaining activity (CTSL; enzyme activity, inhibitor; 100 µM): 87.3%
COc1cc(-c2cc(C(C)=O)n3ccccc23)c(OC)cc1CO  ΔTm (Bromodomain-containing protein 9 (BRD9, Homo sapiens, UniProt Q9H8M2); thermal stability, DSF; 200 µM): 8.5 °C
O=c1[nH]cnc2c1ncn2[C@@H]1O[C@H](CO)[C@@H](O)[C@H]1O  inhibition (Ubiquitin carboxyl-terminal hydrolase 51 (USP51, Homo sapiens, UniProt Q70EK9); enzyme activity, inhibitor; 5 µM): 73%
CC[C@H](C)[C@H](NC(=O)[C@H](CCC(N)=O)NC(=O)[C@H](CC(C)C)NC(=O)[C@H](CCSC)NC(=O)[C@H](CCCCN)NC(=O)[C@H](CO)NC(=O)[C@H](CO)NC(=O)[C@H](CCSC)NC(=O)[C@H](CC(C)C)NC(=O)[C@H](CC(N)=O)NC(=O)[C@@H](NC(=O)[C@@H](NC(=O)[C@H](CO)NC(=O)[C@H](CC(C)C)NC(=O)[C@H](CS)NC(=O)[C@H](CCCNC(=N)N)NC(=O)[C@H](CC(=O)O)NC(=O)[C@H](Cc1c[nH]c2ccccc12)NC(=O)[C@H](Cc1ccccc1)NC(=O)[C@H](C)NC(=O)[C@H](CCC(=O)O)NC(=O)[C@@H](N)CCCCN)C(C)C)[C@@H](C)CC)C(=O)N[C@@H](CC(N)=O)C(=O)N[C@@H](C)C(=O)O  remaining activity (Cyclin-dependent kinase 5, with p35 (CDK5, Homo sapiens, UniProt Q00535); enzyme activity, inhibitor, radiometric; 10 µM, 20 min): 98%
CN(C)c1ncc(F)c(-c2cnn3ncccc23)n1  remaining signal (Cyclin-dependent kinase 2 homolog (CRK2, Plasmodium falciparum, UniProt P61075); cell-free assay; 1 µM): 74%
C=CC(=O)N1CCC(COCC(=O)N2CCN(c3nc(-c4cnc(N)nc4C(F)F)nc(N4CCOC[C@@H]4C)n3)CC2)CC1  remaining binding (Ribosomal protein S6 kinase alpha-5, N-terminal kinase domain (RPS6KA5, Homo sapiens, UniProt O75582); binding, competition with immobilised ligand; 1 µM): 100%
CC(=NNC(=O)c1ccc(N)cc1)c1ccc(Nc2nnc(-c3ccc(Cl)cc3)c3ccccc23)cc1  viability (MCF7; cell growth or viability, MTT; 0.312 µM, 24 h): 87%
O=C1CC[C@H](N2Cc3cc(N4CCN(CC5CCN(c6ccc([C@@H]7c8ccc(O)cc8CC[C@@H]7c7ccccc7)cc6)CC5)CC4)ccc3C2=O)C(=O)N1  AUC(0-inf) (male Sprague-Dawley rat, plasma; intravenous, 5 mg/kg, fed): 5760 ng·h/mL
CCc1ccc(NS(=O)(=O)c2c(C)[nH]c(C)c2C(=O)N2CCCC2)cc1Cl  Emax (DRD3; β-arrestin recruitment, agonist; 90 min): 81%
NCc1ccc(O)cc1  remaining activity (CTSL; enzyme activity, inhibitor; 100 µM): 110%
CC[C@H](C)[C@H](NC(=O)[C@H](CCC(N)=O)NC(=O)[C@@H](NC(=O)[C@H](CCSC)NC(=O)[C@H](CCCCN)NC(=O)[C@H](CO)NC(=O)[C@@H](NC(=O)[C@H](CCSC)NC(=O)[C@H](CC(C)C)NC(=O)[C@H](CC(N)=O)NC(=O)[C@@H](NC(=O)[C@@H](NC(=O)[C@H](CO)NC(=O)[C@H](CC(C)C)NC(=O)[C@H](C)NC(=O)[C@H](CCCNC(=N)N)NC(=O)[C@H](CCC(=O)O)NC(=O)[C@H](Cc1ccc(O)cc1)NC(=O)[C@H](Cc1ccccc1)NC(=O)[C@H](C)NC(=O)[C@H](CC(N)=O)NC(=O)[C@@H](N)CCCCN)[C@@H](C)CC)[C@@H](C)CC)[C@@H](C)O)C(C)C)C(=O)N[C@@H](CC(N)=O)C(=O)N[C@H](C(=O)O)C(C)C  remaining activity (Cyclin-dependent kinase 5, with p25 (CDK5, Homo sapiens, UniProt Q00535); enzyme activity, inhibitor, radiometric; 250 µM, 20 min): 27%
CCc1ccc(NS(=O)(=O)c2c(C)[nH]c(C)c2C(=O)N2CCC(F)(F)C2)cc1Cl  Emax (DRD3; β-arrestin recruitment, agonist; 90 min): 94%
O=C(/C=C/c1ccc(O)c(O)c1)OCCc1ccccc1  remaining activity (CTSL; enzyme activity, inhibitor; 100 µM): 62.6%
CC(=NNC(=O)c1ccccc1)c1ccc(Nc2nnc(-c3ccc(Cl)cc3)c3ccccc23)cc1  viability (MCF7; cell growth or viability, MTT; 0.625 µM, 24 h): 98.6%

Repeated from above:
CCCN(O)N=Nc1ccc(S(=O)(=O)Nc2nccs2)cc1  inhibition (ABTS scavenging; 180 µg/mL): 56.5%
O=C(NO)c1cncc(OS(=O)(=O)Oc2ccc(C(F)(F)F)cc2)c1  Ki (Protein deacetylase HDAC6 (HDAC6, Homo sapiens, UniProt Q9UBN7); enzyme activity, inhibitor, fluorescence): 66 nM
